Assay results from different studies.
A part holds a random share of what one study measured. Values joined by “and” are separate records of one study, mostly repeats; a detail may differ. ± marks the error that the study gave.

Set 1
Structure (SMILES): CCCCC[C@@H](O)CC(=O)N[C@H]1COC(=O)[C@H](CO)NC(=O)[C@H](Cc2ccccc2)NC(=O)[C@@H](Cc2c[nH]c3ccccc23)NC(=O)[C@@H](C(C)O)NC(=O)[C@H](CC(N)=O)NC(=O)[C@@H](C(C)C)NC(=O)[C@H](CC(C)C)NC(=O)[C@@H](Cc2ccc(O)cc2)N(C)C(=O)CNC(=O)[C@H](CO)NC(=O)[C@@H](CC(N)=O)NC1=O (stereo partly drawn)
Host: mouse, S. aureus infection
Route: subcutaneous
setting | survival [%]
60 mg/kg, day 5 | 100
30 mg/kg, day 0 | 100
10 mg/kg, day 0 | 100
60 mg/kg, day 1 | 100
30 mg/kg, day 1 | 100

Set 2
Structure (SMILES): C#CCN1C(=O)C(O)(C(=O)O)Oc2cc(F)ccc21 (stereo not drawn)
Organism: Arabidopsis thaliana
Strain: Col-0
setting | hypocotyl length
3.125 µg/mL, seed germination, single repetition | 2.16 cm and 2.13 cm and 2.14 cm and 2.2 cm and 2.23 cm
12.5 µg/mL, seed germination, repetition mean | 1.7 cm
50 µg/mL, seed germination, single repetition | 0.93 cm and 0.89 cm and 0.95 cm and 0.92 cm and 0.86 cm
25 µg/mL, seed germination, single repetition | 1.38 cm and 1.44 cm and 1.39 cm and 1.51 cm and 1.4 cm
3.125 µg/mL, seed germination, repetition mean | 2.17 cm
50 µg/mL, seed germination, repetition mean | 0.919 cm
6.25 µg/mL, seed germination, repetition mean | 1.95 cm
100 µg/mL, seed germination, repetition mean | 0.101 cm
100 µg/mL, seed germination, single repetition | 0.1 cm and 0.11 cm and 0.07 cm

Set 3
SMILES: Cn1cc(-c2cccc(CN3CCC4(CC3)COc3c4ccc4c3CN([C@@H]3CCC(=O)NC3=O)C4=O)c2)cn1
Target: CRBN/Zinc finger protein Helios (Homo sapiens, UniProt Q96SW2+Q9UKS7)
Chain of UniProt Q9UKS7 (whole entry, looked up): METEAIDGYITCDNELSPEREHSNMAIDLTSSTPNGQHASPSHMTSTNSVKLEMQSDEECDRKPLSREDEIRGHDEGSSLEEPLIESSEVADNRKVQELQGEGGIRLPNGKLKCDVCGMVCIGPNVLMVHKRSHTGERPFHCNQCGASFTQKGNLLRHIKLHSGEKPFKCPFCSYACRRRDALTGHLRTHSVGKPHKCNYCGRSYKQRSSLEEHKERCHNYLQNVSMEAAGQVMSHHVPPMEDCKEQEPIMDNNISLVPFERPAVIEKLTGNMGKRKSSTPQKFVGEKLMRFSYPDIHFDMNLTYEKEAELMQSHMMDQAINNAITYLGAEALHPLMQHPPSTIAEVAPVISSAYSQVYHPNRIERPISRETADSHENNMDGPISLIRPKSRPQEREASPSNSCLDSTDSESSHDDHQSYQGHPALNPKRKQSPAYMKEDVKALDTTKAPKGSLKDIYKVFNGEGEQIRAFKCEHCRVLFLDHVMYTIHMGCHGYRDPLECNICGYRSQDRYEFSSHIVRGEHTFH
Chain of UniProt Q96SW2 (whole entry, looked up): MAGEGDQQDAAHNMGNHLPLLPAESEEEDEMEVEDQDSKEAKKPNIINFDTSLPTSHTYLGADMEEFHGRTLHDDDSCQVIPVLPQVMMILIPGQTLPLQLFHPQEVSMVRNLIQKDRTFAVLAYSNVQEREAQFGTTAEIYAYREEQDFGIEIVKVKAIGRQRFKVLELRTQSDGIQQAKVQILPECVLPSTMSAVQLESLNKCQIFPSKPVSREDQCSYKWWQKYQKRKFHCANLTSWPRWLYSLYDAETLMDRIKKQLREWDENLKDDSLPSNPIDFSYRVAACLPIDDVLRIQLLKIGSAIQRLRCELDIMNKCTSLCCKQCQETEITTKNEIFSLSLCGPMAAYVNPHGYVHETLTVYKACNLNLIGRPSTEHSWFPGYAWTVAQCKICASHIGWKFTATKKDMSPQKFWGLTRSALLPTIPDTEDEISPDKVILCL
Mode: degrader
Technique: HiBiT
Cell line: HEK293
setting | protein remaining
111.1 nM | 14.2% and 17.1%
0.05081 nM | 96.2% and 107%
0.1524 nM | 84.3% and 96.7%
4.115 nM | 52.6% and 47.9%
1.372 nM | 83% and 77%
1000 nM | 8.8% and 10.7%

Mixed results
Compound | organism | assay | system | setting | quantity | result
FC(F)(F)c1ccc(C2=NOC3(NC(c4ccccc4)=NO3)N2c2ccccc2)cc1 (stereo not drawn) | Plasmodium falciparum | parasite growth | W2mef multidrug-resistant | 72 h | IC50 | 300 ± 90 nM

Repeated from above (set 2):
setting | hypocotyl length
12.5 µg/mL, seed germination, repetition mean | 1.7 cm
